Measurements collected from several papers.
Parts stem from different laboratories: compare values within a part only. Changes are numbered by the printed parent chain.

Block 1 — target: CCNB2, cyclin fold, Cln2 fusion (human); method: yeast growth competition, sequencing; matrix: yeast; setting: weak parent motif; reference: not given; direction: higher = stronger binding
Starting sequence: CDC6 docking peptide (human); TLKGRRLVFDNQL; partner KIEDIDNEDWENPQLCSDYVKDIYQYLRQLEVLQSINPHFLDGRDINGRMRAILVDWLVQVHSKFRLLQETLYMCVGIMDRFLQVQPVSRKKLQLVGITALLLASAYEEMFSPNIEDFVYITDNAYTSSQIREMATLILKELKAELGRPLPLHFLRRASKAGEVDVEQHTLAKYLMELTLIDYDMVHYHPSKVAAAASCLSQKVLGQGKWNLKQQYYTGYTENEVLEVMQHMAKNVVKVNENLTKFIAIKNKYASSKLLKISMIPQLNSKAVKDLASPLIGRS
Change	normalised enrichment score
T1W	0.552
F9Q	0.505
R5K F9L	0.496
V8D	0.0569
L2G	-0.0754
G4F	0.026
R5F	0.202
R6D	-0.563
T1V	0.0177
F9M	0.508
Q12P	0.146

Block 2 — method: RNA Bind-n-Seq; molecule type: RNA; matrix: in vitro; concentration: 100 nM; reference: input RNA pool; direction: higher = stronger binding
Target: RING finger protein unkempt homolog, zinc fingers 1-6, SBP tag (UNK, Homo sapiens, UniProt Q9C0B0, residues 30-357)
UniProt Q9C0B0, sequence (30-357, looked up): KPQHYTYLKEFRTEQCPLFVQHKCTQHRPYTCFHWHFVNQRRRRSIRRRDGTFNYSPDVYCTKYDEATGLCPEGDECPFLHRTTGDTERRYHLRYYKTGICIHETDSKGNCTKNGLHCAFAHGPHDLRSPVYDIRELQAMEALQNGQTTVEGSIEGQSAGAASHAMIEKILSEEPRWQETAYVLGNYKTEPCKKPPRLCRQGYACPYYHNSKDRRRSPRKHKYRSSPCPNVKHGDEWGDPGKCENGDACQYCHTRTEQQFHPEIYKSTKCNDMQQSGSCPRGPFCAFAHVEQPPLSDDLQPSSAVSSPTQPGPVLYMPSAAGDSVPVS
Setting: RNA with constant flanks, vertebrate orthologous sites, ends assumed
Constant ends, left off below: GGGAGUUCUACAGUCCGACGAUC … CAACAGAGGAUUGAGCAUCA
Sequence	bound/input enrichment
AGUCCCCUGGGCCGGGACAGGUUUUUUUUUUAACGUCUUGAAAUUUAAACUCUGUGCUUGUAGGAGACUGUAACCUUUUUGUCUUUUUUUUUUUUUUUAAAAAAAAACAACCUCCACCUC	0.39 ratio
UUACAGUCAUUGAUGGACUCUAUUUUUUUAUUAUUACUUGGACCUUGGUCGUUUUUAUACUAGCAAUGAAAAUGUCUUGUUUUAAUUUUGUUUUUGGGGUGGGGGGUGGGAAAUGUCUUG	1.19 ratio
UGAGGGAGAGAUUCCUGUGAUUGCUAAUAUUAAAUUUGCUCUUUUUAAGAUAUUUUAAUCUGCAAUUCUUAAUAAAACUGGCAUGCUUACGUUUCUCACCUGAGGAUUGGCCUCAUAUAA	0.359 ratio
CGUACACUCCUACAUGAGUGAAUUAUUAUUGUCUUUCUUUUCUUUUUUUUUACAUUUUGUAUAGAAAACAUUCAUUUAAGCAAACUUAUUAUUAUUAUUAUUUUUUACAAAAUAUAUCUA	1.23 ratio
GUGACUUUGGAAGUCCGCUCAUCAUCUGUGCAGAGUCUAGCCGGUUCCGGGCCUUGCAGUAUUGUUUUUCUUUGCUGGACCCGAGACCUCUGUUGCAACCAUGCUCCGCCAGAUCGUCGG	0.467 ratio
UUGGAAUCAGCUCUCUGAAUAGAAAUAGUAAUAAAAAAACCAAGCAAAAUGAUAUUUGUAUAGAAAAAACAGAAGUUAAAUCAUGUAAAGUAAAUGCUGCCAGUAUUCCAGGCCCUAAAG	2.8 ratio
CCUGUGAGCGUCUACAGACAGCUCACCAUUUUUGUCCUGUAUCUGUAAACACUUUCUGUUUAGUCUUUUUCUUGUAAAGUUGAUGUUCUUUAAAAUCGUUAAUGUAUCACAGGGCUUAUG	0.584 ratio
CCUCCGGCUUCACACUCUUACAUGAGUGGAUUUUUCUUUUUUUUUUUUUACAUUUUGUAUAGAAAACAAAUUCAUUUAAACAAACUUAUUAUUAUAAUUAUUUUUUACAAUAUAUAUAUA	2.2 ratio

Block 3 — method: RNA Bind-n-Seq; molecule type: RNA; matrix: in vitro; concentration: 200 nM; setting: whole 134-nt RNA, ends assumed; added: 150 mM KCl; reference: input library; direction: higher = stronger binding
Target: Ras GTPase-activating protein-binding protein 1, full length (G3BP1, Homo sapiens, UniProt Q13283)
UniProt Q13283, sequence (whole entry, looked up): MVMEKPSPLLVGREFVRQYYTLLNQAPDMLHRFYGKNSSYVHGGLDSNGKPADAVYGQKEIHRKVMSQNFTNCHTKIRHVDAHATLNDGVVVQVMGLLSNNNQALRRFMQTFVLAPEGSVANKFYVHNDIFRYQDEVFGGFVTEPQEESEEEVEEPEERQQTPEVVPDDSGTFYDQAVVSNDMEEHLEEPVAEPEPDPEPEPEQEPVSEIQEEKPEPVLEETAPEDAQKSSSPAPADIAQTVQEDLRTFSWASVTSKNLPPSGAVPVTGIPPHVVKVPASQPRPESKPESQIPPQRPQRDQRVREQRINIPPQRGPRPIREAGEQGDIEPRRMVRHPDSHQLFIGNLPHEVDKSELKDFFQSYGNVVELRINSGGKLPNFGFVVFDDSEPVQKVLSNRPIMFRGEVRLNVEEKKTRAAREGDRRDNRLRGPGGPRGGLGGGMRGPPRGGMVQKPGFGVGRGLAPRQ
Constant ends, left off below: GGGAGUUCUACAGUCCGACGAUC … UGGAAUUCUCGGGUGUCAAGG
Sequence	log2 enrichment
UCCUGUGCUACACAUCGUAUGUACCGAAUCAAACCCCCAAACCCCCCCAAAUUUUUAAAAAAGUAUUAUGUUACGCCGUUCGGAUCUGCA	0.038
GUCCUGUGCUACACAUCGUAUGUACCGAAUCGGGGAGGGGAAAGGGGUUUUUUUGGGGAAAGUAUUAUGUUACGCCGUUCGGAUCUGCAC	0.569
UUUAAGAGCAGCCAGGGAGAUAGUGGCGUUGACUUGAGUGCCGAGUCUCGGGAGUCGUCUGCGACCUCCUCGCAGCGCAGCUCCCCAUAU	0.722
AGUCCUGUGCUACACAUCGUAUGUACCGAAUCGGGGAAAAAAAGGGGAGGGGUGGGGAAAGUAUUAUGUUACGCCGUUCGGAUCUGCACU	0.866
UAGCAUAUUGCCUUGUUCACUACCGAGGAGAUGAGAAGAUUAAAGGUUUCAUAUGGGAUCUCAUUACUCCAACUGAAGAUGGACAGACAC	0.28
GUCCUGUGCUACACAUCGUAUGUACCGAAUCAAAGUGUGUGUGUGUGUGUGUGUGAAAAAAGUAUUAUGUUACGCCGUUCGGAUCUGCAC	0.599
GUCCUGUGCUACACAUCGUAUGUACCGAAUCGGUUUUUGGGGUUUUUGGGUUUUUGGGGAAAGUAUUAUGUUACGCCGUUCGGAUCUGCA	-0.528
ACCAUGCAGGUGGGCAUCUUUGGGGAGUGGGGCAAGGGGGGGAUAGGGAGGGGGGUAACACUUUGGGAACAGGUGGUCCCAGGUCGUUUC	1.49
CACAGACAACACGAACCCACACAGACACAGAGGGAAGGGGUUGGGAUGGGGACAGGGUGCACAGCAGGGCGGGGUAGGACCCCAGCCCCU	2.16

Further values, each from its own experiment
Substance	target	test	test system	setting	how to read	measurement	result
PhoQ, residues 284 288 289 292 302 303 AGGCYF	PhoP, residues 12 14 15 18 19 VQALL (Escherichia coli, UniProt P23836)	Sort-seq, refers to: YFP reporter	E. coli	PhoQ-PhoP variant library, added: 10 µM Mg2+	reference: high Mg2+ state, higher = stronger signaling	fold induction	10.5

A few entries again (block 2):
Sequence	bound/input enrichment
GUGACUUUGGAAGUCCGCUCAUCAUCUGUGCAGAGUCUAGCCGGUUCCGGGCCUUGCAGUAUUGUUUUUCUUUGCUGGACCCGAGACCUCUGUUGCAACCAUGCUCCGCCAGAUCGUCGG	0.467 ratio
UUGGAAUCAGCUCUCUGAAUAGAAAUAGUAAUAAAAAAACCAAGCAAAAUGAUAUUUGUAUAGAAAAAACAGAAGUUAAAUCAUGUAAAGUAAAUGCUGCCAGUAUUCCAGGCCCUAAAG	2.8 ratio
